Published values gathered from unrelated publications.
Each numbered part is a random draw from the data of one study; scales do not carry over between parts.

Study 1 — method: protein binding microarray; form: double-stranded DNA, one strand shown; medium: in vitro; concentration: not given; baseline: not given; reading: higher = stronger binding
Target: Histone acetyltransferase KAT6A, both winged helices, GST fusion (KAT6A, Homo sapiens, UniProt Q92794, residues 1-181)
Notes: 8-mer, flanks averaged, mean of 2 arrays, mostly near background
Target sequence (chain): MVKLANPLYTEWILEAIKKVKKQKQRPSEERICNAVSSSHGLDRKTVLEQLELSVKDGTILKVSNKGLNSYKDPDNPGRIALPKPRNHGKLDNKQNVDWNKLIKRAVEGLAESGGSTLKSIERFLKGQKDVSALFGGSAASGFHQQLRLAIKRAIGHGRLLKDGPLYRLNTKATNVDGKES
For `ACATTTGA`, the E-score was -0.0138.
`AAGCGGAC` gave an E-score of 0.189.
`AACGCGCA` has an E-score of 0.268.
The E-score of `AATTGTAG` is reported as -0.0316.
`AGCGTCCG` has an E-score of 0.196.
The E-score of `ACACCCGC` is reported as 0.196.
The E-score of `AGGGATGA` is reported as -0.238.
`GCCGTCAC` gave an E-score of 0.284.
`GAATACTC` gave an E-score of -0.0299.
With `GGTCGGTA` the E-score was 0.0691.
For `AACTCAGG`, the E-score was -0.222.
For `CATCCGAC`, the E-score was 0.135.
With `CCGAGCCG` the E-score was 0.312.
The E-score of `CTTGTGGA` is reported as -0.141.
For `CACCCTAG`, the E-score was -0.132.
`CCGCGGTA` gave an E-score of 0.383.
The E-score of `ATGAGCAA` is reported as -0.14.

Study 2 — method: RNA Bind-n-Seq; form: RNA; medium: in vitro; concentration: 200 nM; notes: whole 134-nt RNA, ends assumed; together with: 150 mM LiCl; baseline: input library; reading: higher = stronger binding; library: 7-deaza-guanosine replaces G
Target: Ras GTPase-activating protein-binding protein 1, full length (G3BP1, Homo sapiens, UniProt Q13283)
Sequence of UniProt Q13283 (whole entry, looked up): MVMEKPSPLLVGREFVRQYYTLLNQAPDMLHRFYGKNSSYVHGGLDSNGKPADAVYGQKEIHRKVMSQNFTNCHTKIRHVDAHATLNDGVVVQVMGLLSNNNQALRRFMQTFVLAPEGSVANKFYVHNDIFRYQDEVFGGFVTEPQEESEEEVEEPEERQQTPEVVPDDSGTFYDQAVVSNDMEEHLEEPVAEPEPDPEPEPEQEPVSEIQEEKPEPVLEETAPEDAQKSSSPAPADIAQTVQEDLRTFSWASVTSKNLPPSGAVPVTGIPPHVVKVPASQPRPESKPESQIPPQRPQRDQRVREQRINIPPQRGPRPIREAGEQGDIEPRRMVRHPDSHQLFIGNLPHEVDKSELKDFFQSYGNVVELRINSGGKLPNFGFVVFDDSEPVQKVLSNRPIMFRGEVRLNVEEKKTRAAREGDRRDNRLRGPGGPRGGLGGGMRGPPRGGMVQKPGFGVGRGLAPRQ
All sequences stand within: GGGAGUUCUACAGUCCGACGAUC … UGGAAUUCUCGGGUGUCAAGG
For `AGUCCUGUGCUACACAUCGUAUGUACCGAAUCGGGAAAAAGGGAAAAAGGGAAAGGGAAAGUAUUAUGUUACGCCGUUCGGAUCUGCACU`, the log2 enrichment was -0.765.
`UCCUCAAGUCCUGUGCUACACAUCGUAUGUACCGAAUCGGGUGGGUGGGUGGAAAGUAUUAUGUUACGCCGUUCGGAUCUGCACUUCCAG` has a log2 enrichment of 0.645.
The log2 enrichment of `ACCAUGCAGGUGGGCAUCUUUGGGAAGUGGGGCAAGGGGGGGAUAGGGAGAAAGGUAACACUUUGGGAACAGGUGGUCCCAGGUCGUUUC` is reported as 0.323.
`AAGUCCUGUGCUACACAUCGUAUGUACCGAAUCGGGAGGGAAAAAGGGAAAAAGGGAAAGUAUUAUGUUACGCCGUUCGGAUCUGCACUU` has a log2 enrichment of 0.229.
`UCAAGUCCUGUGCUACACAUCGUAUGUACCGAAUCGGAAAAAGGUUUUUGGUGGAAAGUAUUAUGUUACGCCGUUCGGAUCUGCACUUCC` has a log2 enrichment of -0.452.
`AAGAUUUAGAGAUGAAUUAAAUUUAAUUAGGGGUUGCUAAGAAGCGAGCACUGACCAGAUAAGAAUGCUGGUUUUCCUAAAUGCAGUGAA` has a log2 enrichment of -1.07.
`GUCCUGUGCUACACAUCGUAUGUACCGAAUCGUGUGUGUGUGUGUGUGUGUGUGUGUGUAAAGUAUUAUGUUACGCCGUUCGGAUCUGCA` has a log2 enrichment of -0.826.
`GCAGGAAGUAAAAACAAAUGGAAAUGCUUCGGAUAGUGGCAGGGGUGGGGGUUGCUAAGGAAAGGGUGGGAUGGGAGUGGGUAAAUAGUU` has a log2 enrichment of -0.0296.
`UCCUGUGCUACACAUCGUAUGUACCGAAUCGGCCCCCCGGGCCCCCCGGGGCCCCCCGGGAAAGUAUUAUGUUACGCCGUUCGGAUCUGC` gave a log2 enrichment of -1.22.
`CAAGUCCUGUGCUACACAUCGUAUGUACCGAAUCGGUUUUUGGAAAAAAAGGAGGAAAGUAUUAUGUUACGCCGUUCGGAUCUGCACUUC` has a log2 enrichment of -1.17.
For `ACCAUGCAGGUGGGCAUCUUUGGGAAGUGGGGCAAGGGGGGAAUAGGGAGGGGGGUAACACUUUGGGAACAGGUGGUCCCAGGUCGUUUC`, the log2 enrichment was 0.383.

Study 3 — method: protein-binding microarray; form: double-stranded DNA, one strand shown; medium: in vitro; concentration: not given; reading: higher = stronger binding
Target: Protein C-ets-1 (ETS1, Homo sapiens, UniProt P14921, residues 1-441, full length assumed)
Notes: k-mer, scored over probes, only values ≥0.25
Residues (chain): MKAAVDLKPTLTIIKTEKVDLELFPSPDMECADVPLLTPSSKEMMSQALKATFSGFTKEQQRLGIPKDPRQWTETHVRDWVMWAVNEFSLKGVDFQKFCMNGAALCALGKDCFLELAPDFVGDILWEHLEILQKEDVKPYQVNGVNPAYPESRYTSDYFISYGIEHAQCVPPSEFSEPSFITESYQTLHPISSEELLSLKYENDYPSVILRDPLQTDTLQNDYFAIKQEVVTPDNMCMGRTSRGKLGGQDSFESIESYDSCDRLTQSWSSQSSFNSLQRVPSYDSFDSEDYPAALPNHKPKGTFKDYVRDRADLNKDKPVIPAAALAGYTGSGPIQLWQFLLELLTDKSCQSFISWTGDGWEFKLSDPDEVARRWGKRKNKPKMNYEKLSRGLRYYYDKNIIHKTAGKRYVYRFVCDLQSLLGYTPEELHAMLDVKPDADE
For `GGAAGCAA`, the E-score was 0.385.
`CATACCGG` has an E-score of 0.275.
The E-score of `CTTCCGTC` is reported as 0.461.
`GAGTATCC` has an E-score of 0.293.
The E-score of `ATACTCCG` is reported as 0.27.
`CGGACATA` has an E-score of 0.286.
The E-score of `CTAAAGGA` is reported as 0.319.
The E-score of `CGATATCC` is reported as 0.347.
The E-score of `CCCATCCG` is reported as 0.429.
The E-score of `ATGCTTCC` is reported as 0.431.
For `TCCGACAA`, the E-score was 0.28.
The E-score of `CAGGAAAA` is reported as 0.381.
The E-score of `CGGAAAAG` is reported as 0.41.
For `AGATTTCC`, the E-score was 0.397.
For `CCGCGGAA`, the E-score was 0.313.
For `CTTTCCGC`, the E-score was 0.396.
With `CCCCCGGC` the E-score was 0.274.
`GACCGGTA` has an E-score of 0.264.
For `ATAACCGG`, the E-score was 0.344.
With `CAGCAGGA` the E-score was 0.282.
With `TCCGCTAA` the E-score was 0.266.
For `GGATATAC`, the E-score was 0.388.
`GAGCCGGA` gave an E-score of 0.318.
`GGCGGAAC` has an E-score of 0.383.

Study 4 — method: RNA Bind-n-Seq; form: RNA; medium: in vitro; concentration: 365 nM; baseline: no-protein control; reading: higher = stronger binding
Target: RNA binding protein fox-1 homolog 2, RRM domain, GST-SBP tag (RBFOX2, Homo sapiens, UniProt O43251-10, residues 100-194)
Notes: natural RNA segment, single round, ends assumed
All sequences stand within: GGGAGUUCUACAGUCCGACGAUC … UGGAAUUCUCGGGUGCCAA
Target sequence (chain): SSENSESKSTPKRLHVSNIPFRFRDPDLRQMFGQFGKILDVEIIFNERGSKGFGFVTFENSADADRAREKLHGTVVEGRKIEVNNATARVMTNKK
`GCCACAGCGUAGGUCAUUGCUUGAAAAAAAUGACAGUGACAAUGGAGUGUGACCUUGGUGUACUGUGGCAGCCCAGAUGACUGAGUGCUACAGACGAGUGACCCUUAGAU` — result for “RBNS enrichment (R)”: 1.04.
Under “RBNS enrichment (R)”, `ACCAGGCCAAAUCUAUUUGCCAAGCAGUGUAUCACUAAUAAGAAAAGCAGUUUUUCCUUUUAUUGCAGUUUUUGUUUAUCUGCCAUAGAAUUUCCUUAUACUGUGGCUUG` is recorded as 0.316.
Under “RBNS enrichment (R)”, `CAUGAAUUGGGUAAGCUGGUUUGUUUGACUAGGAAACGGUUCCACAGAGUAUUUGCCACAAGAGGAGAGUAUCCCUCCAGCAAAUAAAAGCAAGUUAGAACGGGCUGGAU` is recorded as 1.58.
Under “RBNS enrichment (R)”, `AUUGGGUGUGAGAAAAGACUGUGUCUUGAAAGAAUUAUCAAAGCUGAUACAGCACAUAUACAGAAUUAGCCAAAUGGUAUAAGACAAUAGAAAAAGGCUGUGGAUUCUUU` is recorded as 0.555.
`CAGCGUGUCCCCAGACGCAGACCUCAAGGGCCUUCUCCAGCGGCUGGAGACAGCCUGAAAAGCAAAGGCCUCAUCUCCAUGGCACAGGGGAGAAGCGCAUCUACCGGGUG`: “RBNS enrichment (R)” 0.183.
Under “RBNS enrichment (R)”, `UUAUAUUUCUCGUAUUUAAUAUGGGUGAACACCAACUUUUAUUUGGAAUAAUAAUUUUCCUCCUAAACAAAAACACAUUGAGUUUAAGUCUCUGACUCUUGCCUUUCCAC` is recorded as 0.495.
For `UGUGUGUGUGUGUGUGUGUGUGGAUGUAUUGACCUGUGUUUCCCAAGACAGCAGGUGCCACGGCCCGCCCCGCCUGCCAGCCCGAAUUCCCGUUCUCCUGUGUCUACUAA`, “RBNS enrichment (R)” read 1.3.
Under “RBNS enrichment (R)”, `AGGCAGUUAUCACCCCUCUGCUGCCGUAUUCAUCACCCAGGCUCUCUUACAAGUUCCUUGUUAAUGCACAAGCGUAGGGACCCUUGUACAGACUCUGGCAGUAUUGAUGA` is recorded as 0.628.
For `UAUUUAUUUUUCUAUUAUAGCCAUAUUUAUAUAUUUAUGCACUUGUAAAUAAAUGUAUAUGUUUUAUAAUUCUGGAGAGACAUAAGGAGUCCUACCCGUUGAGGUUGGAG`, “RBNS enrichment (R)” read 0.676.
`GGACCUGGGGAAGGGAUGCUGAGACACAAGCAGGUCUUCUUAGCUCCAUGUUGGGAGAUGUUGGGGUAAGCAAUGGAGGCUAUAUCCUCAAGAGCUGUCACAGACAAGUG` — result for “RBNS enrichment (R)”: 0.392.
`UUUUUAAAUAUUGUGAUGUUUUAAGAGCCGAUGCUGGCUUCUUUUUUGCAUGUUACAGUUUUCUGGGUUUAUUUUGCCCCCCCCCCCUUUUAUGGAAAAACAACGGAAGU`: “RBNS enrichment (R)” 2.09.
`UUGGUAGAACACAACAUCUACCAUUCAGUUAAACCUUCUUUAUCUCCUCCUUUGGCAUCCAUUUUUCCAAAGAAGAGUCGAGUCCUCUGAGGUCUGUGCUUGAAAGCCGU` — result for “RBNS enrichment (R)”: 0.319.

For quick reference, copied from above (study 4):
Under “RBNS enrichment (R)”, `AUUGGGUGUGAGAAAAGACUGUGUCUUGAAAGAAUUAUCAAAGCUGAUACAGCACAUAUACAGAAUUAGCCAAAUGGUAUAAGACAAUAGAAAAAGGCUGUGGAUUCUUU` is recorded as 0.555.
`CAGCGUGUCCCCAGACGCAGACCUCAAGGGCCUUCUCCAGCGGCUGGAGACAGCCUGAAAAGCAAAGGCCUCAUCUCCAUGGCACAGGGGAGAAGCGCAUCUACCGGGUG`: “RBNS enrichment (R)” 0.183.
Under “RBNS enrichment (R)”, `UUAUAUUUCUCGUAUUUAAUAUGGGUGAACACCAACUUUUAUUUGGAAUAAUAAUUUUCCUCCUAAACAAAAACACAUUGAGUUUAAGUCUCUGACUCUUGCCUUUCCAC` is recorded as 0.495.
For `UGUGUGUGUGUGUGUGUGUGUGGAUGUAUUGACCUGUGUUUCCCAAGACAGCAGGUGCCACGGCCCGCCCCGCCUGCCAGCCCGAAUUCCCGUUCUCCUGUGUCUACUAA`, “RBNS enrichment (R)” read 1.3.
Under “RBNS enrichment (R)”, `AGGCAGUUAUCACCCCUCUGCUGCCGUAUUCAUCACCCAGGCUCUCUUACAAGUUCCUUGUUAAUGCACAAGCGUAGGGACCCUUGUACAGACUCUGGCAGUAUUGAUGA` is recorded as 0.628.
For `UAUUUAUUUUUCUAUUAUAGCCAUAUUUAUAUAUUUAUGCACUUGUAAAUAAAUGUAUAUGUUUUAUAAUUCUGGAGAGACAUAAGGAGUCCUACCCGUUGAGGUUGGAG`, “RBNS enrichment (R)” read 0.676.
`GGACCUGGGGAAGGGAUGCUGAGACACAAGCAGGUCUUCUUAGCUCCAUGUUGGGAGAUGUUGGGGUAAGCAAUGGAGGCUAUAUCCUCAAGAGCUGUCACAGACAAGUG` — result for “RBNS enrichment (R)”: 0.392.
`UUUUUAAAUAUUGUGAUGUUUUAAGAGCCGAUGCUGGCUUCUUUUUUGCAUGUUACAGUUUUCUGGGUUUAUUUUGCCCCCCCCCCCUUUUAUGGAAAAACAACGGAAGU`: “RBNS enrichment (R)” 2.09.
